Published values of several laboratories.
Protocols differ between the studies behind these lines. Numbers after ± are the reported error.
Sequence of UniProt P07197 (whole entry, looked up): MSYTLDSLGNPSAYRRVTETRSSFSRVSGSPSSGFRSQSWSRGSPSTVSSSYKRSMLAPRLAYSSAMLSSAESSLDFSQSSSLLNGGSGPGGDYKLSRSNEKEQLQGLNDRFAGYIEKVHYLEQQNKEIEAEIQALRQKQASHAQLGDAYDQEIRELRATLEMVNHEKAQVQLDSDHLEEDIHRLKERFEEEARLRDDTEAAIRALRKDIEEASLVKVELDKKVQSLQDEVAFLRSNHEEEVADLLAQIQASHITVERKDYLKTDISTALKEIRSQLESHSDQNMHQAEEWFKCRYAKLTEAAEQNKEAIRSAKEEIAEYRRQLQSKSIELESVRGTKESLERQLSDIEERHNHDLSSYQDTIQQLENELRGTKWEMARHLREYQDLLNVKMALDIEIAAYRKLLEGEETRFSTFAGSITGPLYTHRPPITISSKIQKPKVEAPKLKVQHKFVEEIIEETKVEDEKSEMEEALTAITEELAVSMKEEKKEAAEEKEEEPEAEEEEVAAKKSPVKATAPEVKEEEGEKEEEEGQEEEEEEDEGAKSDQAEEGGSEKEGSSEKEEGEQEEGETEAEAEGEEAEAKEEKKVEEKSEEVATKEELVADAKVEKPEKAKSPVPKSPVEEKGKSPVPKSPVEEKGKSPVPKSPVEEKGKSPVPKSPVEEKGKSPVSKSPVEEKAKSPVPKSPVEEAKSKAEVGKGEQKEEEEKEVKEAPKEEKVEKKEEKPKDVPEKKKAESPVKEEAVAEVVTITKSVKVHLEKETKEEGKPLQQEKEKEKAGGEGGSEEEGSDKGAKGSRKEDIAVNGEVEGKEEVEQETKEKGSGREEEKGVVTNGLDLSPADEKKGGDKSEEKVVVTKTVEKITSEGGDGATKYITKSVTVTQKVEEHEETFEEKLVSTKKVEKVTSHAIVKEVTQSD

SMILES | target or system | test | test system | conditions | scale | quantity | value
CC(C)C[C@H](NC(=O)[C@H](C)NC(=O)[C@@H](NC(=O)[C@H](C)NC(=O)[C@H](CC(C)C)NC(=O)[C@H](CC(=O)O)NC(=O)[C@@H]1CCCN1C(=O)[C@@H]1CCCN1C(=O)[C@H](CC(=O)O)NC(=O)[C@H](Cc1ccccc1)NC(=O)[C@H](Cc1c[nH]c2ccccc12)NC(=O)[C@H](CC(C)C)NC(=O)[C@H](C)NC(=O)[C@@H](NC(=O)[C@H](C)NC(=O)[C@H](CC(C)C)NC(=O)[C@H](CC(=O)O)NC(=O)COCC(=O)NCCCOCCOCCOCCCNC(=O)COCC(=O)NCCCOCCOCCOCCCNC(=O)CCC(C(=O)O)N1CCN(CC(=O)O)CCN(CC(=O)O)CC1)C(C)C)C(C)C)C(=O)N[C@@H](Cc1c[nH]c2ccccc12)C(=O)N[C@@H](Cc1ccccc1)C(=O)N[C@@H](CC(=O)O)C(N)=O (stereo partly drawn) [gallium-68 labelled] |  | radio-HPLC | healthy C57BL/6 mice, plasma | intravenous, 4 MBq, 30 min, ex vivo analysis |  | intact parent in plasma | 50 ± 8%
Cc1ccccc1NC(=O)Nc1ccc(CC(=O)N[C@@H](CCCCNC(=O)/C=C/c2cccnc2)C(=O)N[C@@H](CCCC(=O)O)C(=O)NC2(C(=O)NCCOCCOCCOCCOCC(=O)N[C@@H](CCCCNC(=S)Nc3ccc(CCCN(CCN4CCN(CP(=O)(O)O)CCN(CP(=O)(O)O)CC4)CC(=O)O)cc3)C(N)=O)CCCCC2)cc1 [gallium-68 labelled] |  | radio-HPLC | C57BL/6 mice, urine | 30 min post-injection |  | free gallium-68 | 4.8%
CC[C@H](C)[C@@H]1NC(=O)[C@@H]2CCCN2C(=O)[C@H](CC(C)C)NC(=O)[C@H](CC(C)C)NC(=O)CNC(=O)[C@@H](NC(=O)[C@@H](NC(=O)[C@H](CC(=O)O)NC(=O)CNC(=O)[C@@H](NC(=O)[C@H](C)NC(=O)CNC(=O)[C@H](CCCCN)NC(=O)[C@H](CC(C)C)NC(=O)[C@H](CC(C)C)NC(=O)[C@H](CCCCN)NC(=O)CNC(=O)[C@@H](NC(=O)[C@@H](N)CC(C)C)C(C)C)C(C)C)C(C)C)CSSC[C@@H](C(=O)O)NC1=O |  | RNA-seq, item: Clec4a2 mRNA | mouse traumatic brain injury, frontal cortex and hippocampus | dose not given | baseline: TBI plus compound vs TBI | log2 fold change | -1.78
C[C@@H](O)[C@@H](CO)NC(=O)[C@@H](CCCNC(=N)N)NC(=O)[C@@H]1CCCN1C(=O)[C@@H]1CSSC[C@H](NC(=O)[C@H](Cc2ccccc2)NC(=O)CN2CCN(CC(=O)O)CCN(CC(=O)O)CCN(CC(=O)O)CC2)C(=O)N[C@@H](Cc2ccc(O)cc2)C(=O)N[C@@H](Cc2ccccc2)C(=O)N[C@@H](CCC(N)=O)C(=O)N[C@@H](CC(N)=O)C(=O)N1 [gallium-68 labelled] |  |  | Wistar rat, blood | intravenous, 8 MBq, 120 min, group mean |  | tissue uptake | 0.13 %ID/g
CC(C)C[C@H](NC(=O)C[C@H](O)[C@H](CC(C)C)NC(=O)[C@H](Cc1c[nH]cn1)NC(=O)CNC(=O)[C@@H](NC(=O)[C@H](C)NC(=O)[C@H](Cc1c[nH]c2ccccc12)NC(=O)[C@H](CCC(N)=O)NC(=O)[C@@H](Cc1ccccc1)NC(=O)CCNC(=O)CCSc1nnc(NCCC(=O)NCCC(=O)NCCCC[C@H](NC(=O)N[C@@H](CCC(=O)O)C(=O)O)C(=O)O)c2c1CCC1C(CC2)C1COC(=O)NCCNC(=O)CC[C@H](C(=O)O)N1CCN(CC(=O)O)CCN(CC(=O)O)CC1)C(C)C)C(N)=O (stereo partly drawn) [gallium-68 labelled] |  |  | athymic NMRI nude mouse, liver | intravenous, 533 pmol, 2 h |  | tissue uptake | 0.12 %ID/g
CCCCCCCCCC(=O)N[C@@H](Cc1c[nH]c2ccccc12)C(=O)N[C@H](CC(N)=O)C(=O)N[C@@H](CC(=O)O)C(=O)N[C@@H]1C(=O)NCC(=O)N[C@@H](CCCNC(=O)CCC(=O)N2Cc3ccccc3-c3c(nnn3CCC[C@H](NC(=O)CCCCC[N+]3=C(C=CC4=CC(=CC=C5N(C)c6ccccc6C5(C)C)CCC4)C(C)(C)c4ccccc43)C(=O)NCCCCNC(=O)OC(C)(C)C)-c3ccccc32)C(=O)N[C@@H](CC(=O)O)C(=O)N[C@H](C)C(=O)N[C@@H](CC(=O)O)C(=O)NCC(=O)N[C@H](CO)C(=O)N[C@@H]([C@H](C)CC(=O)O)C(=O)N[C@@H](CC(=O)c2ccccc2N)C(=O)O[C@@H]1C |  | rapid equilibrium dialysis | human plasma | 1 µM, 2 h, 37 °C |  | fraction unbound | 0.084
CC(C)C[C@@H]1NC(=O)[C@H](CC(C)C)NC(=O)[C@H](Cc2c[nH]c3ccccc23)NC(=O)[C@H](CO)NC(=O)[C@H](Cc2c[nH]c3ccccc23)NC(=O)[C@@H]2CCCN2C(=O)[C@H](CC(C)C)NC(=O)[C@H](Cc2c[nH]cn2)NC(=O)[C@@H]2CCCN2C(=O)[C@H](CC(N)=O)NC(=O)[C@H](C)NC(=O)[C@H](Cc2ccc(O)cc2)NC(=O)[C@H](CS)NC(=O)[C@H](CCCCNC(=O)CN2CCN(CC(=O)O)CCN(CC(=O)O)CCN(CC(=O)O)CC2)NC1=O [lutetium-177 labelled] |  |  | Balb/c mouse, female, 4T1 tumour, kidney | intravenous, 3.7 MBq, 24 h |  | tissue uptake | 2.17 %ID
C[C@H]1CN(c2n[nH]c3nc(N[C@H]4CC[C@H](NS(=O)(=O)CCC(F)(F)F)CC4)ncc23)CCO1 | Neurofilament medium polypeptide (Homo sapiens, UniProt P07197) | Kinobeads competition, item: NEFM |  | 20 µM, unit not given | baseline: vehicle | remaining binding | 1.08
CO[C@H]1C[C@@H]2CC[C@@H](C)[C@@](O)(O2)C(=O)C(=O)N2CCCC[C@H]2C(=O)O[C@H]([C@H](C)C[C@@H]2CC[C@@H](OC(=O)NCCOCCOCCOCCOCCOCCOCCOCCOCCC(=O)N3CCc4cc(Cn5nc(-c6ccc7oc(N)nc7c6)c6c(N)ncnc65)ccc4C3)[C@H](OC)C2)C[C@@H](O)[C@H](C)/C=C(\C)[C@@H](O)[C@@H](OC)C(=O)[C@H](C)C[C@H](C)/C=C/C=C/C=C/1C |  | phase 1 dose escalation, item: fatigue | advanced solid tumour patients | intravenous, 10 mg weekly, grade ≥3 |  | dose-reducing adverse events | 0%
CC[C@H](C)[C@H](NC(=O)[C@H](Cc1ccccc1)NC(=O)[C@H](CCC(=O)O)NC(=O)[C@H](CCCNC(=N)N)NC(=O)[C@H](C)NC(=O)[C@H](C)NC(=O)[C@H](CCC(N)=O)NC(=O)[C@H](CCC(=O)O)NC(=O)[C@H](CCC(=O)O)NC(=O)[C@H](CC(C)C)NC(=O)[C@H](Cc1ccc(O)cc1)NC(=O)[C@H](CO)NC(=O)[C@H](CO)NC(=O)[C@@H](NC(=O)[C@H](CC(=O)O)NC(=O)[C@H](CO)NC(=O)[C@@H](NC(=O)[C@H](Cc1ccccc1)NC(=O)[C@@H](NC(=O)CNC(=O)[C@H](CCC(=O)O)NC(=O)[C@H](C)NC(=O)CCc1c[nH]cn1)[C@@H](C)O)[C@@H](C)O)C(C)C)C(=O)N[C@@H](C)C(=O)N[C@@H](Cc1c[nH]c2ccccc12)C(=O)N[C@@H](CC(C)C)C(=O)N[C@H](C(=O)N[C@@H](CCCNC(=N)N)C(=O)NCC(=O)N[C@@H](CCCNC(=N)N)C(=O)N[C@@H](CCCCNC(=O)COCCOCCNC(=O)COCCOCCNC(=O)CC[C@H](NC(=O)CCCCCCCCCCCCCCCCC(=O)O)C(=O)O)C(=O)NCC(=O)NCC(=O)N[C@@H](CO)C(=O)N[C@@H](CCCCNc1c(NCCCCCN(O)C(=O)CCC(=O)NCCCCCN(O)C(=O)CCC(=O)NCCCCCN(O)C(C)=O)c(=O)c1=O)C(=O)O)C(C)C [zirconium-89 labelled] |  |  | rat, colon | sc, 3 nmol/kg, 24 h, ex vivo |  | tissue uptake | 0.21 %ID/g
COc1cc2c(Oc3ccc4[nH]c(C)cc4c3F)ccnc2cc1OCC1(N)CC1 |  |  | paediatric recurrent refractory sarcoma | 12 mg |  | grade 3 Diarrhoea | 0%
O=C(O)C[C@H](NC(=O)[C@H](CC(=O)O)NC(=O)[C@H](CC(=O)O)NC(=O)[C@H](CC(=O)O)NC(=O)[C@H](CC(=O)O)NC(=O)[C@H](CC(=O)O)NC(=O)[C@H](CC(=O)O)NC(=O)[C@H](CC(=O)O)NC(=O)[C@H](CC(=O)O)NC(=O)[C@H](CC(=O)O)NC(=O)[C@H](CC(=O)O)NC(=O)[C@H](CCCCNC(=O)c1ccc(C(=O)NCCOCCOB2BBBBBB3BBBB3B2)cc1)NC(=O)CN1CCN(CC(=O)O)CCN(CC(=O)O)CCN(CC(=O)O)CC1)C(=O)O [gallium-67 labelled] |  |  | ddY male mice, lung | intravenous, 37 kBq, 1 h |  | tissue uptake | 0.48 %ID/g

A few entries again:
SMILES | target or system | test | test system | conditions | scale | quantity | value
CC(C)C[C@H](NC(=O)C[C@H](O)[C@H](CC(C)C)NC(=O)[C@H](Cc1c[nH]cn1)NC(=O)CNC(=O)[C@@H](NC(=O)[C@H](C)NC(=O)[C@H](Cc1c[nH]c2ccccc12)NC(=O)[C@H](CCC(N)=O)NC(=O)[C@@H](Cc1ccccc1)NC(=O)CCNC(=O)CCSc1nnc(NCCC(=O)NCCC(=O)NCCCC[C@H](NC(=O)N[C@@H](CCC(=O)O)C(=O)O)C(=O)O)c2c1CCC1C(CC2)C1COC(=O)NCCNC(=O)CC[C@H](C(=O)O)N1CCN(CC(=O)O)CCN(CC(=O)O)CC1)C(C)C)C(N)=O (stereo partly drawn) [gallium-68 labelled] |  |  | athymic NMRI nude mouse, liver | intravenous, 533 pmol, 2 h |  | tissue uptake | 0.12 %ID/g
